Assay results collected from several papers.
Parts stem from different laboratories: compare values within a part only. Positions count from the first letter of the parent shown.

Series 1
Target: TAR DNA-binding protein 43, full length, His tag (TARDBP, Homo sapiens, UniProt Q13148, residues 1-414)
Technique: RNA Bind-n-Seq
Form: RNA
Medium: in vitro
Tested at: 20 nM
Notes: 6-mer, flanks averaged, single round
Together with: 150 mM LiCl
Reference: input library
Direction: higher = stronger binding
Strand	6-mer enrichment (R)
GGGUCC	1.02
AACGAC	0.751
UCACCA	0.894
GAAGCA	0.9
GCUAAC	0.854
ACGGUU	0.905
UCGUUG	0.971
UAAAGG	0.924

Series 2
Target: HLA class I histocompatibility antigen, A alpha chain, allele A*26:03 (Homo sapiens, UniProt P04439)
Read-out: peptide-MHC binding
Form: peptide
Tested at: concentration not given
Molecule	binding
VELQIGWTV	inactive
TYSPALNKM	inactive
LEYGANYFL	inactive
EIEIEKNKK	inactive
IYWLIFWRF	inactive
IIGLLKIFR	inactive
SIPQDGAKM	inactive
WEITYLGTT	inactive
EEIRRIWRQ	inactive
NRWKSWFSY	inactive
QTWHGDAPY	inactive
FIYFGKKQY	inactive
AVVEKWLGM	inactive

Series 3
Target: Sal-like protein 4, full length isoform A (SALL4, Homo sapiens, UniProt Q9UJQ4, residues 1-1053)
Chain of UniProt Q9UJQ4 (whole entry, looked up): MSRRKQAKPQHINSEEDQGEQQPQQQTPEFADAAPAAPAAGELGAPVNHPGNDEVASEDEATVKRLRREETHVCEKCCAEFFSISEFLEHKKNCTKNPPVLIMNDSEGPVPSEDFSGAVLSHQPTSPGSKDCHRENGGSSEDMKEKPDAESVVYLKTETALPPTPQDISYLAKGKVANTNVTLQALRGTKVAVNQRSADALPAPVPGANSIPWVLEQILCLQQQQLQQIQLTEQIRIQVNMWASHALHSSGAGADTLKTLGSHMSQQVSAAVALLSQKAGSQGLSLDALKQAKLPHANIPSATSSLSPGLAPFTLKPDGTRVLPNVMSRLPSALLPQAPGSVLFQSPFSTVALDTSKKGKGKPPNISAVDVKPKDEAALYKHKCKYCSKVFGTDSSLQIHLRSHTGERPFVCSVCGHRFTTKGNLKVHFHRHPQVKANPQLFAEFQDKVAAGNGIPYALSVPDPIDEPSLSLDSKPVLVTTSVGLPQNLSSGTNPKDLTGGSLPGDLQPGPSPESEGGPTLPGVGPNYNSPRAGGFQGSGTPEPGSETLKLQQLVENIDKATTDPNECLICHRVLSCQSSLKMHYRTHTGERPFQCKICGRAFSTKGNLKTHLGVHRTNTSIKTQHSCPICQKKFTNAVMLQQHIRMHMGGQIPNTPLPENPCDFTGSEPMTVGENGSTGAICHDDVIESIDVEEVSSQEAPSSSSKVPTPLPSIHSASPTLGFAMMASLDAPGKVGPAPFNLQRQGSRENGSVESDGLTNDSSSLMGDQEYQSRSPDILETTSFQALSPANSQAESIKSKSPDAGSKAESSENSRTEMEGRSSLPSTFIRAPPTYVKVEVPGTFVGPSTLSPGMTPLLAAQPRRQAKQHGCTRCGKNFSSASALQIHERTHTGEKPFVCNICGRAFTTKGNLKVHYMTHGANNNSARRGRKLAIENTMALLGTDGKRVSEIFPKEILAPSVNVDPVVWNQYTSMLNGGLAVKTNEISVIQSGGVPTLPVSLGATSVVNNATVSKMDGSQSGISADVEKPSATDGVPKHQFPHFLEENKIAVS
Technique: universal PBM
Form: double-stranded DNA, one strand shown
Medium: in vitro
Tested at: 600 nM
Notes: 8-mer, flanks averaged, mean of replicates
Direction: higher = stronger binding
Strand	E-score
AAGTTGAC	-0.056
AATTGTGG	0.129
GACAGACC	-0.249
ATTCTATG	0.178
AGTACTTG	0.187
CGTAGGTC	-0.164
AACAGAGA	0.0983
CCACCCGC	-0.336

Further values, each from its own experiment
Parent: viral docking peptide; CKVKRKLFGSENI; partner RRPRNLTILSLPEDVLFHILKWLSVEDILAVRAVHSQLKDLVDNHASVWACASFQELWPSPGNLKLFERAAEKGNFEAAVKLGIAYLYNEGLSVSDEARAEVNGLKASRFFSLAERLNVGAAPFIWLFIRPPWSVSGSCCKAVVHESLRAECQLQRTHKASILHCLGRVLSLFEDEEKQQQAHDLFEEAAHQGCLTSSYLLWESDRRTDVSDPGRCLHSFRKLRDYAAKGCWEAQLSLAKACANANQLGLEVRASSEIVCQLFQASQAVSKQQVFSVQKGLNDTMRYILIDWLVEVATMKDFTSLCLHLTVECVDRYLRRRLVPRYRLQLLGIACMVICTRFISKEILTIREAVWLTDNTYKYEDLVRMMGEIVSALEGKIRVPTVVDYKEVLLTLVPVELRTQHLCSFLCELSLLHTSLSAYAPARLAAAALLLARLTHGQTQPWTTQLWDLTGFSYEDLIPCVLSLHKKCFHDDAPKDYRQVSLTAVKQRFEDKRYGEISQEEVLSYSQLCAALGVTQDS
Change	target	assay	system	conditions	scale	quantity	result
K2A	CCNF, cyclin fold, Cln2 fusion (human)	yeast growth competition, sequencing	yeast	strong parent motif	reference: not given, higher = stronger binding	normalised enrichment score	8.11

For quick reference, copied from above (series 2):
Molecule	binding
WEITYLGTT	inactive
EEIRRIWRQ	inactive
NRWKSWFSY	inactive
QTWHGDAPY	inactive
